Experimental data pooled from the literature.
A part holds a random share of what one study measured.

Block 1
Target: RNA binding protein fox-1 homolog 2, RRM domain, GST-SBP tag (RBFOX2, Homo sapiens, UniProt O43251-10, residues 100-194)
Technique: RNA Bind-n-Seq
Molecule type: RNA
Sample: in vitro
Tested at: 365 nM
Notes: natural RNA segment, single round, ends assumed
Relative to: no-protein control
Reading: higher = stronger binding
Target sequence (chain): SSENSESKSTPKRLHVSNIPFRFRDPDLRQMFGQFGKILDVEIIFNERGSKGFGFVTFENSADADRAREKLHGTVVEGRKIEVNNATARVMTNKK
| Strand | RBNS enrichment (R) |
| --- | --- |
| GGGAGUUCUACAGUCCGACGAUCAAAUGAUGUUCCAGAAAGAUUACUUUUUCUUUUAUUUUUACUGCCAUUGUUGAUGUGUUGUGGGACAUUUUUAUAUAUUGAACCUGGGUUCUUUUUUGAUCUGUUUUGGUUGGAAUUCUCGGGUGCCAA | 0.539 |
| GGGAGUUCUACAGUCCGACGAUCUUCCCACCCCCUCCUGCCAGCACACAGCCUGGGGUCCCUCCCUCAGGGGCUGUAAGGGAAGGCCCACCCCAACUCUUACCAGGAGCUGCUACAGGCAGAGCCCAGCACUGUGGAAUUCUCGGGUGCCAA | 0.642 |
| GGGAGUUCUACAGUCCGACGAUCUGAUUAGAAGCACAGAAUGAUCAGGCCUUUAGAGCGAUGGAAUGGCCAUUGUCAUAGCACAGAGAUUUCAGAAGCACCUGCAGGUGGCUUGCUUGGGAUGUUGCUGUCCCUGGAAUUCUCGGGUGCCAA | 2.43 |
| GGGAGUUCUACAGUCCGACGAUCAUUAUUUUUUUAAACCAUCGUUAAUAUACUGAAGUGAGCUAUAGCACAUAUCAUGUGCUUAGUUUGUUUAUUUUUCUCCAUCUCCCCUUGGCUUCCUAGAGUUUGGACAUUGGAAUUCUCGGGUGCCAA | 0.295 |
| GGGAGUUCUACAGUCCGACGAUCUCAACAAAUGCUCUAACCUUCUAGAGACAAAAGUCCUAUUUCUGUUUUCUUUUGUCUUUUUAUUUUCAAUUAGUGACCCAUUGUUAAAUCCAAAUCCACUUUUACUGAAAUGGAAUUCUCGGGUGCCAA | 0.659 |
| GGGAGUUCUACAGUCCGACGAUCGCAUAUACCAAAGGCCAGCUGCAUGCCCAUCAGUCUGGUCUUUUUCCUCUGCGGUCAUGUUGGCUUUCAUGCUGGAUCAAAUGUUUUACUUUCCCAGACUGGUGGCAUCUUGGAAUUCUCGGGUGCCAA | 4.11 |
| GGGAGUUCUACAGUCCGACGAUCUCCUUAUUUUUUUCUUUCAAAUAACUUUAAUUAUUUAAUCCCAUACUGAUUAAAAUAUGUCUGUCUAAAGGGAUCUACUACUAUUUGCUUUUAAAAAAGUGUUCCCUAUUUGGAAUUCUCGGGUGCCAA | 2.43 |
| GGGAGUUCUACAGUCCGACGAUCUCAUGUUCCUUAGACCUGAUUUGUUUUGAUAUUUUACUGCCUUUCCUUUUAAUUUUUGUUUGAAUGAGAAAAGUUUAAUACAACAGGUGUCCAGAAUACUUGCAGUAUAAUGGAAUUCUCGGGUGCCAA | 2.41 |
| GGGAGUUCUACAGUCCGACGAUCUAAAACUUCAAGUAUUAAAAUAAUUUGUACAUGUAGAGAGAAAAAUGACUUUUUCAAAAAUAUACAGGGGCAGCUGCCAAAUUGAUGUAUUAUAUAUUGUGGUUUCUGUUUGGAAUUCUCGGGUGCCAA | 0.619 |

Block 2
Target: Prothrombin, mature alpha-thrombin (F2, Homo sapiens, UniProt P00734)
Technique: aptamer microarray, sandwich
Molecule type: DNA with 2'F-ANA
Sample: in vitro
Tested at: 200 nM
Notes: whole 15-mer aptamer, many near background
Together with: Cy3 exosite-II aptamer, 400 nM
Reading: higher = stronger binding
Strand: GGTTGGTGTGGTTGG
| Modification | mean fluorescence intensity [a.u.] |
| --- | --- |
| 2'F-ANA at 2 3 5 7 8 10 11 12 14 | 48.5 |
| 2'F-ANA at 1 3 5 8 10 13 15 | 59.5 |
| 2'F-ANA at 1 6 7 10 14 15 | 55.9 |
| 2'F-ANA at 1 2 5 10 11 12 | 46.8 |
| 2'F-ANA at 1 2 3 6 7 10 11 13 14 15 | 56.3 |
| 2'F-ANA at 1 3 4 11 13 14 15 | 71.9 |
| 2'F-ANA at 1 2 3 4 6 7 11 12 13 14 15 | 67.1 |
| 2'F-ANA at 2 7 10 11 13 15 | 149 |
| 2'F-ANA at 1 4 6 9 11 13 | 68.7 |
| 2'F-ANA at 3 6 8 10 11 15 | 452 |
| 2'F-ANA at 1 2 6 11 12 13 | 212 |
| 2'F-ANA at 1 7 9 10 11 15 | 57.9 |
| 2'F-ANA at 2 5 6 9 11 12 | 118 |
| 2'F-ANA at 2 5 8 11 13 14 15 | 48.1 |
| 2'F-ANA at 1 2 3 7 8 9 10 11 13 15 | 67 |
| 2'F-ANA at 1 3 5 6 7 8 10 12 | 102 |
| 2'F-ANA at 1 5 10 11 13 | 57.4 |
| 2'F-ANA at 1 2 6 8 9 13 14 15 | 55.4 |
| 2'F-ANA at 2 3 4 6 7 10 11 13 14 | 139 |
| 2'F-ANA at 1 3 6 7 11 12 | 407 |
| 2'F-ANA at 2 4 7 9 10 11 15 | 84.5 |
| 2'F-ANA at 1 6 9 11 15 | 141 |
| 2'F-ANA at 2 4 6 7 9 10 11 12 13 | 80.4 |

Block 3
Target: RING finger protein unkempt homolog, zinc fingers 1-6, GST-SBP tag (UNK, Homo sapiens, UniProt Q9C0B0, residues 30-357)
Chain of UniProt Q9C0B0 (30-357, looked up): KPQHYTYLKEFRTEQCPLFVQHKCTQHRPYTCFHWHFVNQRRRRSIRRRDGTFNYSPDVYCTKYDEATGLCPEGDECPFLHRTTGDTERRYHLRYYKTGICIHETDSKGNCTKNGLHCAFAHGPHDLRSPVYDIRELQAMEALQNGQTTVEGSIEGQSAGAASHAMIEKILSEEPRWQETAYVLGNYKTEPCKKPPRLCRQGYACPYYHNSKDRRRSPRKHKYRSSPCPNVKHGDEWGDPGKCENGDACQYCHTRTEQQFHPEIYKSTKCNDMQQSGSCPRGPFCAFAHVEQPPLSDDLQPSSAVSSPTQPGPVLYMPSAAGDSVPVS
Technique: RNA Bind-n-Seq
Molecule type: RNA
Sample: in vitro
Tested at: not given
Notes: RNA with constant flanks, human and mouse sites, ends assumed
Relative to: input RNA pool
Reading: higher = stronger binding
| Strand | bound/input enrichment [ratio] |
| --- | --- |
| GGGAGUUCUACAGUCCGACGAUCACCCGCUACACCCAGGGAACAGGUGGUGAUGAGGUUGAUGAUUCAGUGAGUGUAAAUGACAUAGAUUUAAGCCUGUACAUCCCAAGAGAUGUAGAUGAAACAGGUAUUACUGUAGCCAGUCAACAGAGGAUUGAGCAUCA | 1.5 |
| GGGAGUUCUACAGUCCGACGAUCACUUCAGUGGCUGGAACAGUGAGAAAAUGCUGGCCUAAUAGAGUGGCAAAGGAGCAGAUUAGUAGGCGGCUUGAUGGUAAUCAGUAUCUGUUUUUGCCACCAAAUCGUUACAUUUUCCAUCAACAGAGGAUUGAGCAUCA | 0.168 |
| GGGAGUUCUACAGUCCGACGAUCAUAUCUUAUUGCCAUAAACUCCAUGUGGUUCACAGAGACUUAAAACCAGAGAAUGUAGUCUUCUUUGAAAAACAAGGUCUUGUAAAGUUGACAGACUUUGGGUUCAGCAACAAAUUUCAACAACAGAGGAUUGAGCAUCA | 0.141 |
| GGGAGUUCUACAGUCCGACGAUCGAUGUUCUGCCUACUCAGAUCUAUCCUCUCCCCAAGCAGCAGAACCUUCCCAAGAGACCUACUAGUUUGCCUUUGAACACCAAAAAUUCAACAAAAGAGCCCCGGCUAAAAUUUGGCAGCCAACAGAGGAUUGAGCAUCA | 0.59 |
| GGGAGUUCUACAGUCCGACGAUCCCGGAGCAAAUUUUUCAGAACAUAAAACAAGAAUAUAGUCGUUAUCAGAGGUGGAGACAUUUAGAAGUUGUUCUUAAUCAGAGUGAAGCUUGUGCUUCGGAAAGUCAACCUCACUCCUCACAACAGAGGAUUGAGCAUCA | 1.85 |
| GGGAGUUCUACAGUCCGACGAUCCAGAAUACCCAGGGUCUUAUUUUUGUGGUAGAUAGCAACGAUCGUGAAAGAAUUCAGGAAGUAGCAGAUGAGCUGCAGAAAAUGCUUCUGGUAGAUGAAUUGAGAGAUGCAGUGCUGCUACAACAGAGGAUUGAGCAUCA | 0.31 |
| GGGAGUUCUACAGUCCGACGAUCUUACACUGUGGAAUCCCAGGGAGCAUUGUUUAGUUUAGGGGUAUAACUAGAAACACAACAAAUUCCCAGGAAAGCUCACUGGAGACUAUCAAGAUUUUGAUAGAGUGAGAUCUAUUCAUGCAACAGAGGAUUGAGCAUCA | 0.468 |
| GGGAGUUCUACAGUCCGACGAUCGAUGAUGAAUCUAAAGUAUAUAGUAUGAAACUUGAUGUUGAAUUCAUAAAGACUUUUUCUAUCACACACAAGUUCUUUCAUUAACAUAGUGAAUUAUAACAGCACUGUUUCUACAUUUGCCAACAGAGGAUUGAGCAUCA | 0.461 |

Block 4
Target: Interferon regulatory factor 5, full length, phosphomimetic (IRF5, Homo sapiens, UniProt Q13568-2, residues 1-514, K96S/S451D/S453D/S456D/S462D)
Technique: protein-binding microarray
Molecule type: double-stranded DNA, one strand shown
Sample: in vitro
Tested at: 250 nM
Notes: 60-bp whole probe
Together with: salmon DNA 0.4 mg/ml
Relative to: random background probes
Reading: higher = stronger binding
Shared flanks, not repeated: GCCTAGCAC … GTCTTGATTCGCTTGACGCTGCTG
| Strand | log fluorescence [z-score] |
| --- | --- |
| TTAGGTATCCCTATCCTTTAGTGCTAG | 0.0705 |
| TTAGTTATCGGGTATCGGTTAGTGCTA | 6.32 |
| GACGGTATCGGCCTGGGGACGTGCTAG | 1.65 |
| TTAGGACTGGGTATCGGTTCGTGCTAG | 2.85 |
| CTAATATTCATTTTATTCAAGTGCTAG | 0.887 |
| GACGGTTTCGGGTTTCGGCACGTGCTA | 7.73 |
| TTAGGCATCCTTATCCTTTAGTGCTAG | -0.422 |
| TTAGGACTGGGCTTTCGGTTAGTGCTA | 7.13 |
| TCAGTTCTTATCCTTCCCACTGTGCTA | 0.378 |
| GACGGACAGGGGACTGGGGACGTGCTA | -0.554 |
| TTAGATTTCTGTTTCGATTAGTGCTAG | 9.6 |
| GACGATTTCAGGACTGGAGACGTGCTA | 0.335 |
| GAACTTCTGCATTACAGCTAGTGCTAG | 0.0264 |
| GACGGACTGTGGTATCGGGACGTGCTA | 0.375 |
| GACGATATCGGACTGGGGACGTGCTAG | 0.561 |
| GACGGTCTCGATATCGGGACGTGCTAG | 0.753 |
| TCAGGTCTGGATGTGCCACTGTGCTAG | -0.299 |
| TAAGGTATCGGTTTCGGTTAGTGCTAG | 10.6 |
| TCAGTTTTGAGCTCTGTCTGGGTGCTA | 0.476 |

A few entries again (block 4):
| Strand | log fluorescence [z-score] |
| --- | --- |
| TTAGGACTGGGCTTTCGGTTAGTGCTA | 7.13 |
| GACGATTTCAGGACTGGAGACGTGCTA | 0.335 |
| GACGGACTGTGGTATCGGGACGTGCTA | 0.375 |
| TTAGGCATCCTTATCCTTTAGTGCTAG | -0.422 |
| TTAGATTTCTGTTTCGATTAGTGCTAG | 9.6 |
| GACGGTCTCGATATCGGGACGTGCTAG | 0.753 |
| TAAGGTATCGGTTTCGGTTAGTGCTAG | 10.6 |
| TTAGGTATCCCTATCCTTTAGTGCTAG | 0.0705 |
| CTAATATTCATTTTATTCAAGTGCTAG | 0.887 |
